Results gathered from unrelated publications.
Each numbered part is a random draw from the data of one study; scales do not carry over between parts.

Block 1
Target: Hepatocyte nuclear factor 3-alpha (Foxa1, Mus musculus, UniProt P35582, residues 1-468, full length assumed)
UniProt P35582, sequence (whole entry, looked up): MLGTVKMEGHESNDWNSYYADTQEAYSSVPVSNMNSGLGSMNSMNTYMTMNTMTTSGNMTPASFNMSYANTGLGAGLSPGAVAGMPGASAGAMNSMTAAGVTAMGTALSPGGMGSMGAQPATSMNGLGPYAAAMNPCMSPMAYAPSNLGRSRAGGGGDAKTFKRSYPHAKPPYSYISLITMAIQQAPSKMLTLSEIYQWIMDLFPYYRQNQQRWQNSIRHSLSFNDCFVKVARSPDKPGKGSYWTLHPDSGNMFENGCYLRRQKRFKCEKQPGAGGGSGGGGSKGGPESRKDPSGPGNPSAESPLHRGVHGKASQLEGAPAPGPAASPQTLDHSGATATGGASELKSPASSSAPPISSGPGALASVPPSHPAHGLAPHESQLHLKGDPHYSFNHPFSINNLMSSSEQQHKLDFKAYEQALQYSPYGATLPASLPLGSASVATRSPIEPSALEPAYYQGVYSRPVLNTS
Method: EMSA with sequencing
Form: double-stranded DNA, one strand shown
Matrix: in vitro
Concentration: 10 and 20 nM
Setting: whole designed probe, mean of two concentrations, ends assumed
Baseline: negative control set to 0
Reading: higher = stronger binding
For `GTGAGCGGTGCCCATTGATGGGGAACATACACAGCAGAGAAGTCACATCCTAGTTACTCTCACTTTCTACCTTGTATTACTACTTTTCGTACCCCTAGCTTATTGCTATTAGTACAATGTAATCTGGGAGTTCACACACACATACCCCTGGTCTAAGAAGAATAAAAAATGAAGGAGATTTCTGTTTGTATAGAAAACAGAAGTCACCTTGACTTTTATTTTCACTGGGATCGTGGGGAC`, “normalised bound fraction” read 0.138 ratio.
`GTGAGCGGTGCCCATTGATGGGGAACTGATGATACGTTATAGCATTTCTCTGCTCTGTAAGAGAGGCACCAGGGTCGTGTGCTGGGTCTGGGGTTTGTCCATTCCACATCCGGTGCTGCAGATGACTCTGGTGTCGGCCGCTGGTGAGCTGGCTGTAGCTGGTCACCTCTGGGTGGTTTCTGGGGCGGTCGCAGGCTGACTAACACACCAAAGGTCAGCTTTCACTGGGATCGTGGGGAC` — result for “normalised bound fraction”: -0.0663 ratio.
For `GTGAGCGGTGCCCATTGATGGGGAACATTACCTTGTTGAATCTTTCTACAATGTATAAATATATTAAAACATCACATTGTATTCCACTAATACACACAATTATTAGTTGTTGATTAAAAGTAAATAAAGAAAAAGGAGAACAATGTTGAAGGACTATAGTAATCAAAACAGTGTGATACTGGCATAAACATAGACATGTAAATCAATGGCATACAATCATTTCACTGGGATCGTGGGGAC`, “normalised bound fraction” read 0.48 ratio.
Under “normalised bound fraction”, `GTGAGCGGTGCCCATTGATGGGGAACATCTTCCCCCTCTTCCTTGCCCCACCAGCTCACCTTCCCGGGTTATTTGCACAAAGGAAAATAAATAAAGCCGGCATTCGTTAACGCAGTTCACGCGCATACTGCTGTTTGCTCTGCATGAATCATGGTCCTTACGCGAGGCGTGGCTCCGGGAGAGCAAAGCACCGTGTCAGGCGCATGATCCGGGGTGGCCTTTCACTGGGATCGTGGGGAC` is recorded as 0.379 ratio.
For `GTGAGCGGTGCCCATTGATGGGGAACATAATCATTAACTATGGGCTTTTTAAAAAGAATTTTTTCTTTACTTTGCTATTCTTTTCTTTTCTTTCTCATTCTTTTCTTTCCATTTTCAAAGTCAATAAAAGGACCAAGAGAAAATTTCCCATGAAAAATACATGTTTTTATTCTTTAGTTCAATTCTGCTCCTAAAATGTATAAAAGCCAATAGGATTCATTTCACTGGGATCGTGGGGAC`, “normalised bound fraction” read 0.107 ratio.
`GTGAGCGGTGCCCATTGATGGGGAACATCTTCCCCCTCTTCCTTGCCCCACCAGCTCACCTTCCCGGGTCAAAGTAAACAAGTGTTTACTTTGAAGCCGGCATTCGTTAACCCTCTTCACGCGCATACTGCTGTTTACTTTGGATGAATCATGGTCCTTTGGCGACGCCAGGCTCCGGGAGAGCAAAGCACCGTGTCAGGGCCATGATCCGGGGTGGCCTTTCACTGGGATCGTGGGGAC` — result for “normalised bound fraction”: 0.516 ratio.

Block 2
Target: Sal-like protein 4, full length isoform A (SALL4, Homo sapiens, UniProt Q9UJQ4, residues 1-1053)
UniProt Q9UJQ4, sequence (whole entry, looked up): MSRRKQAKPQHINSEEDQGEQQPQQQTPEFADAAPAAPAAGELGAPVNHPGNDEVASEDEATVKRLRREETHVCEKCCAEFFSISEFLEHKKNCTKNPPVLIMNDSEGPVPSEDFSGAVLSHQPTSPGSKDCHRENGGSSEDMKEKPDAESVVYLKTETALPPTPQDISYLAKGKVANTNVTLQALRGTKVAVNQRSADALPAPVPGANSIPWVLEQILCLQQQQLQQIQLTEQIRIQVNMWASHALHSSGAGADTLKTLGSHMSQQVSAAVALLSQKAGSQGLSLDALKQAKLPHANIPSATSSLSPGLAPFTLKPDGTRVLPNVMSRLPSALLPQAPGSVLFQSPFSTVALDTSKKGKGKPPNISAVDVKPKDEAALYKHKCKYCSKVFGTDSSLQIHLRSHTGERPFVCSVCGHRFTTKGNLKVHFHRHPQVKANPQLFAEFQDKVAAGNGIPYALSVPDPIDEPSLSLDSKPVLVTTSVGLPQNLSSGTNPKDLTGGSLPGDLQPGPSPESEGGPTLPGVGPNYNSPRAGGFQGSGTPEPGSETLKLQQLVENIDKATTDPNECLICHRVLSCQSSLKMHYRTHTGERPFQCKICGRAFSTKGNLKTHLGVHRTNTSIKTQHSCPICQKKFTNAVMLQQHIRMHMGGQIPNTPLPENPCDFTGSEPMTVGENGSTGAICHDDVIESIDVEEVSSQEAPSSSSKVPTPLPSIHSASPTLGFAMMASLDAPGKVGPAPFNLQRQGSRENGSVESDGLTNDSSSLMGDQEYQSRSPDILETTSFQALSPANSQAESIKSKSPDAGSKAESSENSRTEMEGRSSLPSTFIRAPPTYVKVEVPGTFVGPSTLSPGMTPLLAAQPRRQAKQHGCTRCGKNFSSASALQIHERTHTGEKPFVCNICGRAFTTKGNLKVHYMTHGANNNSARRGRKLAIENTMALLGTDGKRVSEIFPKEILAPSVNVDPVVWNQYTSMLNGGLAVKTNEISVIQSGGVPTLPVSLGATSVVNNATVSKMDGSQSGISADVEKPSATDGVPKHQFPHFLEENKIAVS
Method: universal PBM
Form: double-stranded DNA, one strand shown
Matrix: in vitro
Concentration: 600 nM
Setting: 8-mer, flanks averaged, mean of replicates
Reading: higher = stronger binding
The E-score of `AAATTAAC` is reported as 0.266.
`ATAGCTCC` gave an E-score of 0.0303.
`CTTCACGC` has an E-score of -0.0819.
With `GTACATCA` the E-score was 0.153.
With `AACCTACT` the E-score was -0.0138.
`GAACTGCC` has an E-score of -0.198.
`GGCCGCAC` has an E-score of -0.268.
`TAATGGGA` has an E-score of 0.0643.
With `GGCGACGA` the E-score was -0.228.
The E-score of `TCTTGCAA` is reported as 0.0543.
`CTTTCCCA` gave an E-score of -0.0812.
The E-score of `ACGCGAAC` is reported as -0.127.
`ATGCGTAA` gave an E-score of 0.289.
`AGCCGGGC` gave an E-score of -0.44.
`CCTTTAGC` has an E-score of -0.146.
With `AGCAGCCA` the E-score was -0.0765.
`AGCTACCC` has an E-score of -0.0852.
For `GCTCGTAC`, the E-score was -0.0161.
With `CGTAGCAG` the E-score was -0.0809.
With `GCACTGTA` the E-score was -0.0284.

Block 3
Target: RNA binding protein fox-1 homolog 2, RRM domain, GST-SBP tag (RBFOX2, Homo sapiens, UniProt O43251-10, residues 100-194)
Method: RNA Bind-n-Seq
Form: RNA
Matrix: in vitro
Concentration: 365 nM
Setting: natural RNA segment, single round, ends assumed
Baseline: no-protein control
Reading: higher = stronger binding
Residues (chain): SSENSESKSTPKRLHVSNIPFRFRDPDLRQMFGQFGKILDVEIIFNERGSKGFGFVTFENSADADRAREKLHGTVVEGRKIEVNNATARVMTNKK
Under “RBNS enrichment (R)”, `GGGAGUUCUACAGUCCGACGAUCUGGUGAAUCUAUCUCUCCGGAGAUAAUUUCAUACAGAGAUUUUAAGAAAACAUCUUUAUAUUAAAAAAGAUCUCAUUUGAUCCUUAAGCCAGUCUCAUGAAUGAAAAGGAUGGAAUUCUCGGGUGCCAA` is recorded as 0.841.
Under “RBNS enrichment (R)”, `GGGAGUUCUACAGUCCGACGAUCAGGAUGGGGAGGUAGGAAUGAGGUAUAGAAAAGAGAUAGCAUCUUCUUUGGCACAAGACUAGUGGCUUACCGCUUACCUUAGAGUUUUGUUUUUUUUUUUUCAAACCCAUUGGAAUUCUCGGGUGCCAA` is recorded as 0.892.
`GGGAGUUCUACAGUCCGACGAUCCGAGUGUGAACAUGGCACUGCUGUUCCCUUCCCCCUCCCUGCACCCGCCGCAGCCUGCCAUCCCAUUUGGAUGUAUCAAUGCCACUGAGUUGUCUGUCCGUCCGUGGAGCUGGAAUUCUCGGGUGCCAA`: “RBNS enrichment (R)” 0.713.
`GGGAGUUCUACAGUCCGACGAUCGCCUUCCCUGAGGAUGGCUCUGUUCCUUUGCUUGUUAGAAGAGCGAUGCCUUGGGCAGGGUUUCCCCCUUUUCAGAAUACAGGGUGUAAAGUCCAGCCUAUUACAAACAAUGGAAUUCUCGGGUGCCAA`: “RBNS enrichment (R)” 2.93.
`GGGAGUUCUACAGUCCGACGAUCUAGGAAUACUCCUAAAACAGAUAUUGCCAACUAGAUACACUGCCUCAAUCUUGACCAGACAAGAGAACAGUUAAGUUCUCUCAGUUGGGUAGUAACUUGAAUACCAGUCUUGGAAUUCUCGGGUGCCAA` — result for “RBNS enrichment (R)”: 0.256.
`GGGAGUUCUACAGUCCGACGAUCCCUUGGCCUGUCUCAUCCCUGUGGGUCCCAGCUCAGCUCUGGCCACCCCGGGCUCUCUGCUGUACAUAUUCGAGACUAGUUUUUAUUCCUUGUGAAGAUGAUAUACUAUUUGGAAUUCUCGGGUGCCAA` — result for “RBNS enrichment (R)”: 0.29.
For `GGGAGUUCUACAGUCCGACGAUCCCAAAUCCAAAAGAACACAUAGCUGUAACACAGCUGUAGUUGACUAGAAUGCUCUGUAUACUUUAUAUUAAAAAAUGCUUUGCAUUUCUUCCAGUGCAAUGAAAUUCAUAUGGAAUUCUCGGGUGCCAA`, “RBNS enrichment (R)” read 0.552.
`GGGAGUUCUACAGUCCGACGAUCUGGUUUUGGAUGGAGUUAAACUUGAUGCCAGUGGGCAGUGCAUGUGGAAAGUAUCAGAGUAAGGCUCUCCCCUCCAGAGCCCUGAGUUUCUUGGCUGCAUGAAGGUUUUCUGGAAUUCUCGGGUGCCAA` — result for “RBNS enrichment (R)”: 12.2.
Under “RBNS enrichment (R)”, `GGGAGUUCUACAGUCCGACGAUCCCCCAGUGUGAGUGGUCUCCAUGGCAGUUUGGAGCCAACGAGGAUCGGGAGGGGAGCAGUAGCACUAUGGGAGGGAGAGAGGCCUUCCAUAGCCUCCUCCCCAGGACCUGUGGAAUUCUCGGGUGCCAA` is recorded as 0.892.

Block 4
Target: Interferon regulatory factor 5, full length, phosphomimetic (IRF5, Homo sapiens, UniProt Q13568-2, residues 1-514, K96S/S451D/S453D/S456D/S462D)
Method: protein-binding microarray
Form: double-stranded DNA, one strand shown
Matrix: in vitro
Concentration: 250 nM
Setting: 60-bp whole probe
Together with: salmon DNA 0.4 mg/ml
Baseline: random background probes
Reading: higher = stronger binding
All sequences stand within: GCCTAGCAC … GTCTTGATTCGCTTGACGCTGCTG
`TCAGGTTTCGACTTTCGGTTAGTGCTA` has a log fluorescence of 10.8 z-score.
`TCATCTTTCACTGCTCCAACTGTGCTA` has a log fluorescence of 3.41 z-score.
The log fluorescence of `GACGGTATCGACTATCCGGACGTGCTA` is reported as 2.82 z-score.
`TCATTGATGGCTCTCTGACTGTGCTAG` gave a log fluorescence of -0.273 z-score.
The log fluorescence of `TTAGGAATCGACACTGGGTTAGTGCTA` is reported as 0.309 z-score.
With `TTAGATTTCAGTACCGATTAGTGCTAG` the log fluorescence was 2.15 z-score.
`CCACTGCAAAAACATCCTGGGTGCTAG` has a log fluorescence of 0.105 z-score.
For `TTAGGTATCGGACTGGGTGAGTGCTAG`, the log fluorescence was 1.49 z-score.
`TTAGATTTCGGGTATCGAATAGTGCTA` gave a log fluorescence of 6.28 z-score.
`TTAGGTATCAGGACTGGGTTAGTGCTA` gave a log fluorescence of 0.45 z-score.
`ATTGAGAATTCCACTCCGCTGTGCTAG` has a log fluorescence of -0.144 z-score.
`GACGGTTTCCGGTTTCGGGACGTGCTA` gave a log fluorescence of 4.38 z-score.
The log fluorescence of `TTATTTATAAATTATCTTTAAGTGCTA` is reported as 1.01 z-score.
For `TTATGACTGCTTCTCCTTTAGTGCTAG`, the log fluorescence was 0.179 z-score.
With `TTAGGTTTCGGCACTGGGTTAGTGCTA` the log fluorescence was 6.23 z-score.
For `GACGGTCTGGACTATCGGGACGTGCTA`, the log fluorescence was 0.713 z-score.
With `TCTTCCTTTACTTTCTTTTTGTGCTAG` the log fluorescence was 3.11 z-score.
`TTAGTACTGGGACTGGGTTAGTGCTAG` gave a log fluorescence of -0.622 z-score.
For `TTACTTCCCAATAATCTTTTCGTGCTA`, the log fluorescence was 1.28 z-score.
`TTAGGTTTCGACAGTGGGTTAGTGCTA` gave a log fluorescence of 5.74 z-score.
With `TTAGGTCACGGACTGGGTTAGTGCTAG` the log fluorescence was -0.58 z-score.
`TTAGGACTGCTACTGCATTAGTGCTAG` has a log fluorescence of -0.0974 z-score.
`TTTCCTTTGCCTCTGAGGCTGTGCTAG` has a log fluorescence of 2.85 z-score.
`TGATAAATCTTTGTTGGAGGGGTGCTA` gave a log fluorescence of 0.488 z-score.
`TTAGATTTCGGGTTTCGCTTAGTGCTA` has a log fluorescence of 6.61 z-score.
